# Results of several laboratories.
# Each line is one published result; not all experiments were run side by side. Values joined by “and” are separate records of one study, mostly repeats; a detail may differ. Numbers after ± are the reported error.
# KCNQ1 with KCNE1: Potassium voltage-gated channel subfamily KQT member 1, with KCNE1 (KCNQ1, Homo sapiens, UniProt P51787)
# spsB: Signal peptidase IB (spsB, Staphylococcus aureus, UniProt Q5HHB9)
# TRPM8: Transient receptor potential cation channel subfamily M member 8 (TRPM8, Homo sapiens, UniProt Q7Z2W7)
# CAMKK2: Calcium/calmodulin-dependent protein kinase kinase 2 (CAMKK2, Homo sapiens, UniProt Q96RR4)
# RPS6KA1: Ribosomal protein S6 kinase alpha-1 (RPS6KA1, Homo sapiens, UniProt Q15418)
target,test,test system,conditions,scale,remaining activity,Compound
KCNQ1 with KCNE1,"IKs current, patch clamp",HEK293,3 µM,relative to: pre-drug current,115%,CCN(CC)CCCC(C)Nc1ccnc2cc(Cl)ccc12 (stereo not drawn)
spsB,"peptidase activity, activator, FRET peptide cleavage","Staphylococcus aureus, membranes",100 µM,relative to: DMSO,130%,O=C(Cc1ccc(Cl)c(C(F)(F)F)c1)Nc1ccc2c(c1)OC(F)(F)O2
"TNIK (Homo sapiens, UniProt Q9UKE5)","kinase activity, inhibitor, HotSpot radiometric",,"100 nM, added: ATP 10 µM",,91.2 ± 1.7%,CC#CC(=O)N1CCC[C@H]1c1nc(-c2ccc(C(=O)Nc3ccccn3)cc2)c2c(N)nccn12
TRPM8,antagonist,HEK293,5 µM,relative to: control,93.4 ± 9.16%,O=S(=O)(NCCNC/C=C/c1ccc(Br)cc1)c1cccc2cnccc12
KCNQ1 with KCNE1,"IKs current, patch clamp",HEK293,10 µM,relative to: pre-drug current,96.6%,CCN(CCO)CCCC(C)Nc1ccnc2cc(Cl)ccc12 (stereo not drawn)
"ERN1 (Homo sapiens, UniProt O75460)",enzyme activity,,10 µM,relative to: control,4.4%,COc1cc(N2CCN(C)CC2)ccc1Nc1nc(N)n(C(=O)NCc2c(Cl)cccc2Cl)n1
"Peroxidasin homolog (PXDN, Homo sapiens, UniProt Q92626)","enzyme activity, inhibitor, Amplex UltraRed",,20 µM,relative to: control,24.4% and 23.2%,NC/C(=C\F)COc1cccc(Cn2c(=S)[nH]c(=O)c3[nH]cnc32)c1
CAMKK2,"kinase activity, inhibitor, HotSpot radiometric",,"1000 nM, added: ATP at Km",,86 ± 3.4%,COc1ccc(F)cc1C(=O)NCc1ccc(-c2nn([C@@H](C)C(F)(F)F)c(N)c2C(N)=O)cc1
TRPM8,antagonist,HEK293,5 µM,relative to: control,106 ± 10.3%,COc1cc2ncnc(Nc3cccc(Cl)c3)c2cc1OC
spsB,"peptidase activity, activator, FRET peptide cleavage","Staphylococcus aureus, membranes",100 µM,relative to: DMSO,148%,O=C(Nc1ccc(Cl)c(C(F)(F)F)c1)N1CCc2ccccc2C1
"PRKCG (Homo sapiens, UniProt P05129)","kinase activity, inhibitor",,1 µM,relative to: untreated control,89%,CNc1ncc2c(/C=C/C(=O)N3CCC(OC)CC3)nn(Cc3cccc(C(F)(F)F)c3)c2n1
GSK3 alpha,"inhibitor, biochemical kinase",,1 µM,,100%,COc1cc(Nc2ncc3c(n2)-c2ccc(Cl)cc2C(c2c(F)cccc2OC)=NC3)ccc1C(=O)O
TRPM8,antagonist,HEK293,5 µM,,46.9 ± 8.32%,COc1cc(OC)c(/C=C2/C(=O)Nc3ccccc32)c(OC)c1
"FLT3 (Homo sapiens, UniProt P36888, D835Y)",enzyme activity,,10 µM,,80%,O=C(NC1CCC1)c1ccc2nc(-c3cccc(NS(=O)(=O)NCCN4CCCCC4)c3)cn2c1
"AKT2 (Homo sapiens, UniProt P31751)","kinase activity, inhibitor, SelectScreen kinase profiling",,1 µM,relative to: control,103%,c1cnc2ccc(Nc3nc(NC4CC4)c4nc[nH]c4n3)cc2c1
RPS6KA1,"kinase activity, KinaseProfiler",,"0.03 µM, species human",relative to: control,96%,Cc1cc(Nc2cc(N3CCN(C)CC3)nc(Sc3ccc(NC(=O)C4CC4)cc3)n2)[nH]n1
TRPM8,antagonist,HEK293,5 µM,relative to: control,105 ± 1.14%,CCOc1cc2ncnc(Nc3cccc(Br)c3)c2cc1OCC
"ROCK1 (Homo sapiens, UniProt Q13464)",enzyme activity,,10 µM,relative to: control,0.05%,COc1cc(N2CCN(C)CC2)ccc1Nc1nc(N)n(C(=S)NCc2c(Cl)cccc2Cl)n1
"PAK2 (Homo sapiens, UniProt Q13177)",kinase activity,,"10 µM, added: 10 µM ATP",,112%,COc1cc(F)ccc1-c1ncnc(Nc2cccc(C[S@](C)(=N)=O)c2)n1
spsB,"peptidase activity, activator, FRET peptide cleavage","Staphylococcus aureus, membranes",10 µM,relative to: DMSO,105%,O=C(Nc1ccc(Cl)c(C(F)(F)F)c1)N1CCC(F)(F)CC1
"PLK3 (Homo sapiens, UniProt Q9H4B4)",kinase activity,,"1 µM, human enzyme, added: ATP 10 µM",relative to: DMSO control,101%,COc1cc(-c2cncc3c2CN(C)Cc2cc(N4CCNCC4)ccc2-3)cc(OC)c1OC
"LCK (Homo sapiens, UniProt P06239)","kinase activity, inhibitor, HotSpot radiometric",,"100 nM, added: ATP 10 µM",,9.5 ± 0.4%,C=CC(=O)N1CCC[C@@H](n2nc(-c3ccc(Oc4ccccc4)cc3)c3c(N)ncnc32)C1
spsB,"peptidase activity, activator, FRET peptide cleavage","Staphylococcus aureus, membranes",100 µM,relative to: DMSO,110%,Cc1cccc(C)c1NC(=O)Nc1ccc(Cl)c(C(F)(F)F)c1
PKCε(h),kinase activity,,1 µM,,123%,O=C(O)c1ccc(Nc2ncc3c(n2)-c2ccc(Cl)cc2C(c2c(F)cccc2F)=NC3)cc1
CAMKK2,"kinase activity, inhibitor, HotSpot radiometric",,"100 nM, added: ATP 10 µM",,76.9 ± 1.7%,C=CC(=O)N1CCC([C@@H]2CCNc3c(C(N)=O)c(-c4ccc(Oc5ccccc5)cc4)nn32)CC1
spsB,"peptidase activity, activator, FRET peptide cleavage","Staphylococcus aureus, membranes",50 µM,relative to: DMSO,134%,O=C(Nc1ccc2c(c1)CCC2)Nc1ccc(Cl)c(C(F)(F)F)c1
TRPM8,antagonist,HEK293,5 µM,relative to: control,93.8 ± 3.84%,Ic1cccc(CSc2nnc(-c3ccncc3)o2)c1
spsB,"peptidase activity, activator, FRET peptide cleavage","Staphylococcus aureus, membranes",50 µM,relative to: DMSO,128%,O=C(Nc1ccc(N2CCOCC2)cc1)Nc1ccc(Cl)c(C(F)(F)F)c1
"CXCR4 (Homo sapiens, UniProt P61073)","arrestin recruitment, antagonist, DiscoverX arrestin",,30 µM,relative to: untreated,0.2% and 0.04%,Cc1noc(C)c1CN(C(=O)CCc1nc(Cc2ccccc2)no1)c1ccccc1
spsB,"peptidase activity, activator, FRET peptide cleavage","Staphylococcus aureus, membranes",50 µM,relative to: DMSO,111%,O=C(Nc1ccc(C(=O)Nc2ccccc2)cc1)Nc1ccc(Cl)c(C(F)(F)F)c1
TRPM8,antagonist,HEK293,5 µM,relative to: control,81.2 ± 4.74%,CCOc1nc(NC(=O)Cc2cc(OC)ccc2OC)cc(N)c1C#N
RPS6KA1,enzyme activity,,10 µM,,88%,O=C1NC(=O)/C(=C/c2ccc(-c3ccc(F)cc3O)o2)S1
TRPM8,antagonist,HEK293,5 µM,relative to: control,98.9 ± 9.57%,CC(C)[C@H](CO)Nc1nc(Nc2cccc(Cl)c2)c2ncn(C(C)C)c2n1
"Insulin-like growth factor-binding protein 5 (Homo sapiens, UniProt P24593)",,,1 µM,,95.2%,C=CC(=O)N1CCC[C@@H](n2nc(-c3ccc(Oc4ccccc4)cc3)c3c(N)ncnc32)C1
spsB,"peptidase activity, activator, FRET peptide cleavage","Staphylococcus aureus, membranes",10 µM,relative to: DMSO,115%,O=C(Nc1ccc2c(c1)OCCO2)Nc1ccc(Cl)c(C(F)(F)F)c1
TRPM8,antagonist,HEK293,5 µM,relative to: control,89.1 ± 16.3%,CO[C@H]1C[C@@H]2CC[C@@H](C)[C@@](O)(O2)C(=O)C(=O)N2CCCC[C@H]2C(=O)O[C@H]([C@H](C)C[C@@H]2CC[C@@H](O)[C@H](OC)C2)CC(=O)[C@H](C)/C=C(\C)[C@@H](O)[C@@H](OC)C(=O)[C@H](C)C[C@H](C)/C=C/C=C/C=C/1C
